# Results of several laboratories.
# A part holds a random share of what one study measured.

# Study 1
# Target: Interferon regulatory factor 3, full length, phosphomimetic (IRF3, Homo sapiens, UniProt Q14653, residues 1-427, S386D/S396D/S398D/S402D/T404D/S405D)
# Method: protein-binding microarray
# Form: double-stranded DNA, one strand shown
# Matrix: in vitro
# Tested at: 2540 nM top
# Notes: 60-bp whole probe
# With: salmon DNA 0.4 mg/ml
# Reference: random background probes
# Reading: higher = stronger binding
# Constant ends, left off below: GCCTAGCAC … GTCTTGATTCGCTTGACGCTGCTG
# Residues (chain): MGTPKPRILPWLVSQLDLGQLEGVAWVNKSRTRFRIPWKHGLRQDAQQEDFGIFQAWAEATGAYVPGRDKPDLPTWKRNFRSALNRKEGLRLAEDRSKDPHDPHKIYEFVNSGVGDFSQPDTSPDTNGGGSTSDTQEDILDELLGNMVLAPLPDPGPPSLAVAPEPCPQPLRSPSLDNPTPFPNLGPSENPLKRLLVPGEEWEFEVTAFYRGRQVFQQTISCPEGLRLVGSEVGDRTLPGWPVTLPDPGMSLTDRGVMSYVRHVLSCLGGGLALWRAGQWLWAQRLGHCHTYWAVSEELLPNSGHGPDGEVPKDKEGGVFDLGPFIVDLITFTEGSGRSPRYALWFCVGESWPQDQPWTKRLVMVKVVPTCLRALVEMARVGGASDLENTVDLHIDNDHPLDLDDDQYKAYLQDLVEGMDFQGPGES
Sequence,fitted relative affinity [z-score]
CAATTCCTGAAATCTCTTTCCGTGCTA,1.79
TTAGGTCTCGGTCTCGGTAAGTGCTAG,1.31
GAGGGACTGGACACTGGGGACGTGCTA,-1.07
TTAGGACTGGACTATCTGTTAGTGCTA,-0.465
AACGGACTGCTACTGCTGACGTGCTAG,-0.612
TTAGAACTGGGGACCGGATTAGTGCTA,-0.472
GCAAGAACAGCTGGTGGGCAGTGCTAG,-1.02
TTAGGTTCCAGTTTCGATTAGTGCTAG,6.13
GTTGAGTTCTGTTGCAAAGGGTGCTAG,-0.201
TTAGATTTCTGGACTGGATTAGTGCTA,0.125
TTAGGACTGGACTATCGGTTGGTGCTA,-0.538
GTCTGTTTCCTCTTTCTTTGGTGCTAG,5.19
AGCTGTTTGAGAAATCAGATGGTGCTA,-0.0785
GACGTTATCCTTCTCCTGACGTGCTAG,4.57
TAAGGACTGGGACTGGGTTAGTGCTAG,-1.01
GACGCTATCGGGTTTCGGGACGTGCTA,1.31
TCAAGTTTCTCCTTTCCACTGTGCTAG,2.68
TCACATATGTTTTTCATACTGTGCTAG,1.01
TTAGGTATCGGTCGCGGTTAGTGCTAG,1.08
GTAAAATTATTCTGTATATTGTGCTAG,0.164
TCATTTCTAAAACTCTTACTGTGCTAG,2.37
TTGGATTTCGGGACTGGATTAGTGCTA,0.719
TTAGGACTGAGGACTGGGTTAGTGCTA,-1.01
TTTGCTTTCTTTTTGCACTCGTGCTAG,2.96
ACACGGCTCTAAACTCATGTAGTGCTA,-0.421

# Study 2
# Target: Hepatocyte nuclear factor 3-alpha (Foxa1, Mus musculus, UniProt P35582, residues 1-468, full length assumed)
# Method: EMSA with sequencing
# Form: double-stranded DNA, one strand shown
# Matrix: in vitro
# Tested at: 10 and 20 nM
# Notes: whole designed probe, mean of two concentrations, ends assumed
# Reference: negative control set to 0
# Reading: higher = stronger binding
# Residues (chain): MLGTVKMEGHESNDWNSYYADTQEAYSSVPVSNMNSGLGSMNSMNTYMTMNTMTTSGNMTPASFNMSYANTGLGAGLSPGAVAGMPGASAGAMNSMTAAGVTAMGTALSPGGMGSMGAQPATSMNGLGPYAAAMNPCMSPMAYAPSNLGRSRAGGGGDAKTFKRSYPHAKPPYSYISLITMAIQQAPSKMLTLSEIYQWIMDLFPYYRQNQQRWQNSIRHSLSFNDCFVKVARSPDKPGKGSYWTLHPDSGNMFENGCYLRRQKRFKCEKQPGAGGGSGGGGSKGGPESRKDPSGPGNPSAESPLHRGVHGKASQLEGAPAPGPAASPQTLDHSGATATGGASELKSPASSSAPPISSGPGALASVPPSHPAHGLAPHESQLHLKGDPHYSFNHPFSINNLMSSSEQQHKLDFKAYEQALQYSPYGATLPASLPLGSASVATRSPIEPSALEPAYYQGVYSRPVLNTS
Sequence,normalised bound fraction
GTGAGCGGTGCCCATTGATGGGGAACATGTACTTTGGAAACAACTAACCAGGTGTATGTTTTTCGAAGTGTTAATGATTGCTAGGTTGTGACACTGAAATCAGTAAAACACGAATCAAATATTTACACATACCTTCCATGCAGTGTATTTTCCATCATGGGAAGGTATTGGGCAATGGAAAATTTCTCAAATACTTTTACTGGAAGAGACAAATTAGGCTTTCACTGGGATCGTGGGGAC,0.157 ratio
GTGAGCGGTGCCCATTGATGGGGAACGATTCCAGCCAGCAGAATAGGAATTTCAGAATACGATAAGGAGATGTTAAGGAAGGTCAGGCAGTAAAAAGAGGTTTGCTGACTCATGTGGTTAGATGACTTAGCAAGTCAGGGAGAAGTCAATAGATTGCTCTCCTGTTTTACAGTCTTTAGGTGTGGGCCAGCCCAGGGCCATTGATAGTCATTTTAGCCATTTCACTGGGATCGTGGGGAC,-0.0329 ratio
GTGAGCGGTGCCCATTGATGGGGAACCCCTCATCCTGGGTGTCGGGGTGGGAGGTGTTCTCATCATGAATGGGAGGCGTACCCAGATCCAGCTCTGCCTTTTTTTAACCAAACCAGAGTGTAAACAAATGGTGACTCACCAGCTGTTAATCGACATAGCAAGATATGATACATGCCAGGAGAGAAAAAGAAAGTGCTGATGGAAAAATAATCTCATTAGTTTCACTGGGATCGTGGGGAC,0.33 ratio
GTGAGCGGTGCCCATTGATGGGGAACTTTCAGAGGACATCCTCTCCCCACCCAACCCCTACACCCGCCATGGCCCCAGGTTCATCTCTGCCGGCCCATATGACTCATTTGCTCTGGTGTGTTTACTCAGGCACCTGTTTACCCTCGTTTATGGCCGGCTTATTTATGGCTGGCTTCCAGGAACACAAGCTCCAGGAAGCGGTGGCCAAGAAAGTAGTGGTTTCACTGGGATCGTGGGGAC,0.443 ratio
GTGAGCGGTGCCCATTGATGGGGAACATTAGTTCATGCCAGGCAGGGTTTGACCAAAACCTTGGACTCACTCCTGTCTGCTTTCCTTCAGTGACTAAGAGGATTCCTGAGATGGATGTGCAAACATGAAGTGTTTACTTTCCTCCATGGGAATGTACTTCTGGCTTCCACTCCTCAGCTGCTGCTGCTAAGCCAGTGAGATAGATGGTGGTTTGGAAACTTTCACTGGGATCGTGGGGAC,0.406 ratio
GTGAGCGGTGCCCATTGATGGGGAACCAATGCACTTCAAAGGAGAGCAGAATGCATTTCTTGTACAGAATTCCTGGATATGTTTGATCATTAGTTAGGGCAAGTAGTTTGACTTGAGGCTATTTACTCAGCAGGAATAAAAAGTACAGCATTGCTTCAACCAAGAGGAGTGCCCCATACCTTCCCCAAGCAGAATTTAATAATTTGATCTGTCAGAGGATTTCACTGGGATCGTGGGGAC,0.233 ratio

# Study 3
# Target: Histone acetyltransferase KAT6A, winged helix 1, GST fusion (KAT6A, Homo sapiens, UniProt Q92794, residues 1-85)
# Method: protein binding microarray
# Form: double-stranded DNA, one strand shown
# Matrix: in vitro
# Tested at: not given
# Notes: 8-mer, flanks averaged, mean of 2 arrays, mostly near background
# Reference: not given
# Reading: higher = stronger binding
# Construct (chain): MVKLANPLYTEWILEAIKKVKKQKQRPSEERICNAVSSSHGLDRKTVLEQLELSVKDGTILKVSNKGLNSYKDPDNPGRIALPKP
Sequence,E-score
ATTGGAAC,-0.214
CCCAAATC,-0.119
CCCATCCA,-0.241
GCAGTGCA,-0.146
AAGTCTTA,-0.123
ACGAATGC,-0.0323
ACGGCAGG,0.317
CAACAGCG,0.18
CCTGCTGC,-0.0454
GAAGAGTC,-0.192
CTGCGAGC,0.00836
GCGTCTCC,0.299
CTGACTAA,-0.0112
GGCCGACC,0.268
ATGAGTCA,-0.191
AGCAGGTG,0.00747
ACCGTACG,0.354
GAAAGTAC,0.0379
CACAGCGG,0.181
AGACAACT,-0.282
CCACCCCG,0.21

# Study 4
# Target: Phosphate system positive regulatory protein PHO4, full length, GST-tagged (PHO4, Saccharomyces cerevisiae, UniProt P07270, residues 1-312)
# Method: competition protein-binding microarray
# Form: double-stranded DNA, one strand shown
# Matrix: in vitro
# Tested at: 2 µM
# Notes: whole 60-bp probe, lowest competitor level
# With: Cbf1 competitor, 0.05 µM
# Reading: higher = stronger binding
# Construct (chain): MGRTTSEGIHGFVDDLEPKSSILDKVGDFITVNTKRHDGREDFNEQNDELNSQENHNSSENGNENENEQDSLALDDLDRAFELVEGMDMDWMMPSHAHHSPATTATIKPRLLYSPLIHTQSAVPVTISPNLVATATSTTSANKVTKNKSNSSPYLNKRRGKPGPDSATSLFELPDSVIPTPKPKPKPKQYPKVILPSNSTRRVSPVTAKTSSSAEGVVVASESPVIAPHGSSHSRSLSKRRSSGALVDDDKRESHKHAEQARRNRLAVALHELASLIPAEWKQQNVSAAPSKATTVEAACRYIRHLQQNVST
Sequence,fluorescence intensity
TTGGTGGGGACTCTGCATGTGAAGAAGCTCAGTTCTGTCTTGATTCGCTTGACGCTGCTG,5760 a.u.
TGCCTCAGTTATGAGCACGTGCTCTGACCTGGCTGCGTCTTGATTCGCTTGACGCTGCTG,18500 a.u.
CGTCCTAGTGATTGTGTGGTGGGTGCCATGAGGAAGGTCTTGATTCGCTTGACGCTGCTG,7820 a.u.
ATTAAGATCAATCGGCACGTGCTTTTTTCGAACATCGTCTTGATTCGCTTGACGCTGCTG,20900 a.u.
GTTCTTACAAACAGGAACATTAGCATCATTGGATACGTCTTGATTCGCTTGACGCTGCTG,4260 a.u.
CGTATGGAGTTTTCAAACGTGGAACAAAGAACCCAAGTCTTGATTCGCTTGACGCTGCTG,7920 a.u.
CGCCCGACGTCATTCCTCGTGATGGCTTCTGTTGTTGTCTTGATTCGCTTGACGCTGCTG,7340 a.u.
TAAGTGTGTCCCACACTCGTGGCAATTTTTCTTGATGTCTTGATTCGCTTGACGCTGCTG,10900 a.u.
CCGAACCTTTGAGCGGTCATGACAACTTCAATTCTTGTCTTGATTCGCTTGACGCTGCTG,2940 a.u.
TGTATAAATGTCCGTCACGTGGCCGTCTGTCTCTTAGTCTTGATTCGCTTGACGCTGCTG,16600 a.u.
GTTACCAATTTGAGACTTGTAATATGGTTGGTTACCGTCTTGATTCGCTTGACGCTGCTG,3980 a.u.
CATACCCAACCTTGGGCCGTGGGTGAAGATATTTGTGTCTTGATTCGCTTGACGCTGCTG,5430 a.u.
AAGGATACACAAAGGCAGGTGATTCCTGACTACCAAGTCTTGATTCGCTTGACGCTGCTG,3670 a.u.
TTTGGTCTTCGATCCCACGTGGCCAACAATATCTTCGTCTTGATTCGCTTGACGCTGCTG,17000 a.u.
GGTAGCGATTTCCATCACGTGACTCGTTTTTATTCCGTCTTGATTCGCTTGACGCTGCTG,14100 a.u.
CGCGAATGAGTTTGCCACGTCGTTTGCCCCGATGTTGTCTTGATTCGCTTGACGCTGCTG,4490 a.u.
ATTCCAAACGTTACCCACGTTATCAACTACGATTTAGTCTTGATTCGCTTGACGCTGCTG,11500 a.u.
CATGGAAGTTACCATCACCTGCATTACCAACAATGGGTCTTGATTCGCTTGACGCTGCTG,5440 a.u.
CGGCTTACTTTGTAACGCGTGGTCGCCTATACACCGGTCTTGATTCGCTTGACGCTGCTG,8450 a.u.
AAAGCGGTAATTTGTCTCGTGGGTGCAGATATCTATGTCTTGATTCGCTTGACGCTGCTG,9890 a.u.
GACACTTCTTTGTATAACGTGACGGTGGTGTCGCCAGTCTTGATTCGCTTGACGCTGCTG,7940 a.u.

# Repeated from above (study 1):
Sequence,fitted relative affinity [z-score]
GTTGAGTTCTGTTGCAAAGGGTGCTAG,-0.201
TTAGATTTCTGGACTGGATTAGTGCTA,0.125
TTAGGACTGGACTATCGGTTGGTGCTA,-0.538
GTCTGTTTCCTCTTTCTTTGGTGCTAG,5.19
AGCTGTTTGAGAAATCAGATGGTGCTA,-0.0785
GACGTTATCCTTCTCCTGACGTGCTAG,4.57
TAAGGACTGGGACTGGGTTAGTGCTAG,-1.01
GACGCTATCGGGTTTCGGGACGTGCTA,1.31
